Published values of several laboratories.
Compare with care: the assays were run in different laboratories. ± marks the error that the study gave.

`COc1nnc2ccc(N3CCC(c4ccc(OCCN5CCN(C)C(=O)[C@H]5C)cc4)CC3)nn12` gave an AUC(0-t) of 0.273 µM·h (patients, plasma; oral, 15 mg twice daily, single dose, monotherapy).
The AUC(0-t) of `CO[C@H]1CC[C@H](N2C(=O)CNc3ncc(-c4ccc(C(C)(C)O)nc4)nc32)CC1` is reported as 1900 ng·h/mL (patients, plasma; oral, 60 mg, day 15, geometric mean).
With `C[C@@H](N)C1CCN(S(=O)(=O)c2cccc3cnccc23)CC1` the AUC(0-t) was 13.8 ng·h/mL (healthy volunteers, fasted, plasma; oral, 75 mg).
The AUC(0-t) of `Oc1ccc([C@@H](O)c2cc(-c3ncnc4cc(N5CCOCC5)ccc34)c(F)cc2Cl)nn1` is reported as 479 ng·h/mL (geometric mean; healthy volunteers, plasma; oral, 100 mg, fasted oral suspension).
`C[C@@](Cc1ccc(O)c(O)c1)(NN)C(=O)O` gave an AUC(0-t) of 0.35 µM·h (Parkinson's disease patients, plasma; oral, dose not given, 3 h, low levodopa AUC subgroup (11.5 µmol·h/L), median).
The AUC(0-t) of `O=C(O)c1cc(O)c(O)c(O)c1` is reported as 1.3 ± 0.57 µM·h (chicken Ross broiler, male, serum; oral, 0.49 mg/kg, 6 h).
For `N[C@@H](Cc1ccc(O)c(O)c1)C(=O)O`, the AUC(0-t) was 12.8 µM·h (Parkinson's disease patients, plasma; oral, dose not given, 3 h, high carbidopa Cmax subgroup (≥9 µmol/L), median).
The AUC(0-t) of `CS(=O)(=O)c1ccc([C@@H](O)[C@@H](CF)NC(=O)C(Cl)Cl)cc1` is reported as 23900 ± 2370 ng·h/mL (chicken (Arbor Acres), plasma; oral, 20 mg/kg, with: saline pretreatment).
With `N[C@@H](CC(=O)N1CCc2c(nc(C(F)(F)F)nc2C(F)(F)F)C1)CN1CC(F)(F)CCC1=O` the AUC(0-t) was 1320 ± 251 ng·h/mL (healthy Korean adults, fasted, plasma; oral, 50 mg single dose, separate tablets, with: enavogliflozin 0.3 mg).
With `C=CC(=O)NC1CCN(c2ncc3ncnc(Nc4ccc(Oc5ccc6c(c5)ncn6C)c(C)c4)c3n2)CC1` the AUC(0-t) was 4.43 µM·h (healthy men; oral, 60 mg single dose, with: carbamazepine).
The AUC(0-t) of `COc1c(O)cc(C(=O)O)cc1O` is reported as 0.44 ± 0.27 µM·h (LC-MS/MS; male Ross broilers, serum; oral, 0.49 mg/kg gallic acid, 6 h).
The AUC(0-t) of `CC[C@H](Nc1ncnc2[nH]cnc12)c1oc2ccccc2c(=O)c1-c1cccc(F)c1` is reported as 11300 ± 2260 ng·h/mL (patients, Cohort-2, plasma; oral, 600 mg twice daily, with: romidepsin 12 mg/m2).
For `Cc1ccc(NC(=O)c2ccc(CN3CCN(C)CC3)cc2)cc1Nc1nccc(-c2cncc(-c3oncc3C)c2)n1`, the AUC(0-t) was 32100 ± 8190 ng·h/mL (Parkinson's disease patients, plasma; oral, 50 mg/day, 7 days, steady state).
`Cc1ccc2c(c1)C(=O)[C@]1(O)CCN(c3ccc4nc(C)ccc4c3)C1=N2.Cl` has an AUC(0-t) of 4.46 ± 0.14 µM·h (plasma; intravenous, 2 mg/kg).
`OC[C@H]1O[C@@H](c2cc(Cc3ccc(C4CC4)cc3)c(Cl)c3c2CCO3)[C@H](O)[C@@H](O)[C@@H]1O` has an AUC(0-t) of 31.9 ± 10.6 ng·h/mL (healthy Korean adults, fasted, plasma; oral, 0.3 mg single dose, fixed-dose combination tablet, with: co-administered drug 50 mg).
